Measured values gathered from unrelated publications.
Each line is one published result; not all experiments were run side by side.
UniProt Q9BWU1, sequence (whole entry, looked up): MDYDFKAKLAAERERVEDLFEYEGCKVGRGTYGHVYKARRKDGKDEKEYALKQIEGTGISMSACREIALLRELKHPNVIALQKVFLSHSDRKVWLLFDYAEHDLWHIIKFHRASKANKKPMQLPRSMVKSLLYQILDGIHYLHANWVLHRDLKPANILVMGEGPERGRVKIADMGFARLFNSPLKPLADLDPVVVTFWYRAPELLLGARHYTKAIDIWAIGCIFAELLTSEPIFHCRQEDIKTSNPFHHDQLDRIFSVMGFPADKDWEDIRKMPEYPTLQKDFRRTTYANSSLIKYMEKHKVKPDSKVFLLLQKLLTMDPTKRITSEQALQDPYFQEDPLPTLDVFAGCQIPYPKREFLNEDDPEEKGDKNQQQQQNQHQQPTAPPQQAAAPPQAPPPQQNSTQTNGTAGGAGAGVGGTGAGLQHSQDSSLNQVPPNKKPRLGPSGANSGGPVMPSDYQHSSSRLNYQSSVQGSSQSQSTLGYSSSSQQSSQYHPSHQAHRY
UniProt Q15139, sequence (whole entry, looked up): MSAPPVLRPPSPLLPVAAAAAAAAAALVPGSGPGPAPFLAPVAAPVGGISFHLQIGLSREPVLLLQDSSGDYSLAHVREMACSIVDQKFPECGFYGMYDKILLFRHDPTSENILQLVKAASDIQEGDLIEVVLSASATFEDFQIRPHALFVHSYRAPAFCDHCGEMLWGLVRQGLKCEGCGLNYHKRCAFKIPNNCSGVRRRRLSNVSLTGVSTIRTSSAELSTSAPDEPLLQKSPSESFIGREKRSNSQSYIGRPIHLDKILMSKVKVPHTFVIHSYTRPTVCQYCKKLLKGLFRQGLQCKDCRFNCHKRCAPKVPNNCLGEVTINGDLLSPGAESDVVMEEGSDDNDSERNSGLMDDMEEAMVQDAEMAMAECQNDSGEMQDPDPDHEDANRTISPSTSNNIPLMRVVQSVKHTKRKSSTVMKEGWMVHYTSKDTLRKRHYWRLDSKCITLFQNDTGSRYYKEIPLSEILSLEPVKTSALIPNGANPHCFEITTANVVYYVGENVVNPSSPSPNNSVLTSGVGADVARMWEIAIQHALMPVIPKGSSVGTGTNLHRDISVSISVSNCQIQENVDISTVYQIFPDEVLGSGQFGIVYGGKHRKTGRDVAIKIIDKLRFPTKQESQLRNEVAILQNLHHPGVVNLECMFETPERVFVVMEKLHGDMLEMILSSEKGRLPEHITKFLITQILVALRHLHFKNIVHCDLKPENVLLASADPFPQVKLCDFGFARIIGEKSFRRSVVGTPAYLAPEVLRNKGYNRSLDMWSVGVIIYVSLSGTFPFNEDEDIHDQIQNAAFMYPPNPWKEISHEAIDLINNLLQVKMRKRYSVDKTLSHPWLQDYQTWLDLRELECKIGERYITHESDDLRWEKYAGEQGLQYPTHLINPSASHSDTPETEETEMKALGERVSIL
UniProt Q9H093, sequence (whole entry, looked up): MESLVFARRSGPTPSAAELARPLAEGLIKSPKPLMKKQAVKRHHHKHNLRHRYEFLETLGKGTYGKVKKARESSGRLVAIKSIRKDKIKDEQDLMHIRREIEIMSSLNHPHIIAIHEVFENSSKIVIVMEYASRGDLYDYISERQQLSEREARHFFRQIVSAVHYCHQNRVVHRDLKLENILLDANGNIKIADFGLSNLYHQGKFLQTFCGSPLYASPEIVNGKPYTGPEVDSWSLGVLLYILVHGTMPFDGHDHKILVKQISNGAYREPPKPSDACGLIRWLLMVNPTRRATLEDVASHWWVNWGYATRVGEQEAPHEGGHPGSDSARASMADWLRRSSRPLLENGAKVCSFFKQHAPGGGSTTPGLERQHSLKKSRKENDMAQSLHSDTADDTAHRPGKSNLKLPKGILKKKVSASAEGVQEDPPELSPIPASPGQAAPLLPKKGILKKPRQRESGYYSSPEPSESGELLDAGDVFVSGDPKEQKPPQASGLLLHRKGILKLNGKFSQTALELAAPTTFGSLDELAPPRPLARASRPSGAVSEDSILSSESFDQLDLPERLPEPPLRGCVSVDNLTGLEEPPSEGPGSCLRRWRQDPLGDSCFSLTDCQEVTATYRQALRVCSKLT
UniProt P23458, sequence (whole entry, looked up): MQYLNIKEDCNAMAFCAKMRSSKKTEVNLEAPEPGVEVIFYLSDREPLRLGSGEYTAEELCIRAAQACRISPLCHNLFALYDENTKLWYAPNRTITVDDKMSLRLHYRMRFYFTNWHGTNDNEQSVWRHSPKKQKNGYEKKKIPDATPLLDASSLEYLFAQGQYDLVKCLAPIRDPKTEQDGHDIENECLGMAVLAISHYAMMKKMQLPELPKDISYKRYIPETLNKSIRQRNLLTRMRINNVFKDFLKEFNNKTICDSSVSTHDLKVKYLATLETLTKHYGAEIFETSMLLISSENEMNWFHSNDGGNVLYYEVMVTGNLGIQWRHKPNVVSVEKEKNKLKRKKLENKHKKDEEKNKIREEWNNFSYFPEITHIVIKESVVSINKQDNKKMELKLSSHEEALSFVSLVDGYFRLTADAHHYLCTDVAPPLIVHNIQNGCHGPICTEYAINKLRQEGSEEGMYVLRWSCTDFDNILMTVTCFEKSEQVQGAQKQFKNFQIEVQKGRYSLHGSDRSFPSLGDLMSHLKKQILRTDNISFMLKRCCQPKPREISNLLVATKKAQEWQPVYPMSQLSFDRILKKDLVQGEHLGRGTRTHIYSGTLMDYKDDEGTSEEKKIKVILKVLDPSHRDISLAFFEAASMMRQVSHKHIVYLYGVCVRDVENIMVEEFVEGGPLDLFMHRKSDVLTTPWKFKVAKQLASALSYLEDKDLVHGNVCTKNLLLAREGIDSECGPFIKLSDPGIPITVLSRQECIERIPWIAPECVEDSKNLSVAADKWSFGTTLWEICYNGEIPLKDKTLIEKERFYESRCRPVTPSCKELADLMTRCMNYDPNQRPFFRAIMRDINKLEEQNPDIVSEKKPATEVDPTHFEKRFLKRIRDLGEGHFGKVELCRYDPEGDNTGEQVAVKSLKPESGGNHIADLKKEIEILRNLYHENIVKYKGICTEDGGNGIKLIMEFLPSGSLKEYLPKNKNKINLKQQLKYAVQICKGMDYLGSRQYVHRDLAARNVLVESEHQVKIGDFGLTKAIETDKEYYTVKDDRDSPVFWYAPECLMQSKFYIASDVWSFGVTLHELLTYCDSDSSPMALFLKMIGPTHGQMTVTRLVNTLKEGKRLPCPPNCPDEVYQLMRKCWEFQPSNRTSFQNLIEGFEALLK
UniProt Q9SZU7, sequence (whole entry, unmodified, looked up): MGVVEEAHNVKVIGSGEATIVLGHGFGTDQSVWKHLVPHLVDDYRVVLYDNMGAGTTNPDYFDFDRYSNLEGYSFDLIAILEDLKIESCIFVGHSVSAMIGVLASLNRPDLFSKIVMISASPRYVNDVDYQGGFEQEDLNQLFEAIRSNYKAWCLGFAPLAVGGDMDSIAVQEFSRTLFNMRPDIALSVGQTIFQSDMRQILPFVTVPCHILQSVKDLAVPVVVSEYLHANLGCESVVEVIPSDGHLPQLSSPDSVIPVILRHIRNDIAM
UniProt P48039, sequence (whole entry, looked up): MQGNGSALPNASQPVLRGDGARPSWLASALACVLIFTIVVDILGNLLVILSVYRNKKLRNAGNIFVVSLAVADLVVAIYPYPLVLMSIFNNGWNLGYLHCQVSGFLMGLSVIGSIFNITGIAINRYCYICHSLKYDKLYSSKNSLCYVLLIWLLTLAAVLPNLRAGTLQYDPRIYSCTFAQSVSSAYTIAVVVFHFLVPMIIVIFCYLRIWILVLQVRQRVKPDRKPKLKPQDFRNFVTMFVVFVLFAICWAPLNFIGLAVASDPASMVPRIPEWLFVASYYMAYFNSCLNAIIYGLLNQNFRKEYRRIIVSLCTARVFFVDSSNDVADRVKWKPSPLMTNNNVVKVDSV
UniProt P07949, sequence (whole entry, looked up): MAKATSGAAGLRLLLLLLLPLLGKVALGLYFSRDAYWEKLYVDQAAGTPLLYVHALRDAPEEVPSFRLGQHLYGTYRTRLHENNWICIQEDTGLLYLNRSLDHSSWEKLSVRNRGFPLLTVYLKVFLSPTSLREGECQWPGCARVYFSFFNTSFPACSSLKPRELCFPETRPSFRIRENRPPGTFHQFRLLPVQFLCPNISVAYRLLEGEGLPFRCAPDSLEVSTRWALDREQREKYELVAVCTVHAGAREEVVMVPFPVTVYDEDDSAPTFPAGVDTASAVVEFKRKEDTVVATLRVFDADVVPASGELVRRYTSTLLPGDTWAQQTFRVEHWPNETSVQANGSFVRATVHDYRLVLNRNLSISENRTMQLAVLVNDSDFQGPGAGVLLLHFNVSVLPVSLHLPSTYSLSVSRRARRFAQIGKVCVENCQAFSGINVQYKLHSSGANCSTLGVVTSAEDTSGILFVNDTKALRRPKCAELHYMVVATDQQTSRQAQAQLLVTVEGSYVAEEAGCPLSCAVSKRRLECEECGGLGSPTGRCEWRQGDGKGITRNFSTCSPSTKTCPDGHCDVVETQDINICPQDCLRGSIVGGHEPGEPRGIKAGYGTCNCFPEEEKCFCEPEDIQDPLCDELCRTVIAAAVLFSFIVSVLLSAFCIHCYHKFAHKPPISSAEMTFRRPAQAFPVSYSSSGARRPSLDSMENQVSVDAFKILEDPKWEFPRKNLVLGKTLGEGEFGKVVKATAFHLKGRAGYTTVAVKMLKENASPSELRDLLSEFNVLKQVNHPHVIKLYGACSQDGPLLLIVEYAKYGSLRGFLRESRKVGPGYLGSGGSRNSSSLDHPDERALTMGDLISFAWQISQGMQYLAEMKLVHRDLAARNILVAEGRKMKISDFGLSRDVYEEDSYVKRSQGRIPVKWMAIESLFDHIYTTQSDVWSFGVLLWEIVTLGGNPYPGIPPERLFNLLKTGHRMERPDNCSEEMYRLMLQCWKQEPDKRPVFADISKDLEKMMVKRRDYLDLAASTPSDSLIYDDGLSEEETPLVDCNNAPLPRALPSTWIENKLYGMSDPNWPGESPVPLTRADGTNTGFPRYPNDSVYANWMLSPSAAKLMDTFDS

`O=c1nc(N2CCN(CC3CCCCC3)CC2)sc2c([N+](=O)[O-])cc(C(F)(F)F)cc12` gave a concentration of 2580 ng/mL (CD-1 mouse, plasma; oral, 100 mg/kg, 4 h).
The viability of `CC(=NNC(=O)c1ccccc1O)c1ccc(Nc2nnc(-c3ccc(Cl)cc3)c3ccccc23)cc1` is reported as 15.8% (HepG2; cell growth or viability, MTT; 5 µM, 24 h).
For `CNc1ncc2c(/C=C/C(=O)N3CCC(OC)CC3)nn(Cc3cccc(C(F)(F)F)c3)c2n1`, the remaining activity was 96% (RAF1 (Homo sapiens, UniProt P04049, Y340D/Y341D); enzyme activity, inhibitor, radiometric; 1 µM).
With `CC(=O)OCc1cnc(C)c2oc(=Nc3ccc(F)cc3)c(C(=O)Nc3ccc4c(c3)OCO4)cc12` the remaining activity was 101% (RET (Homo sapiens, UniProt P07949); enzyme activity, inhibitor, radiometric; 10 µM).
For `C1=C/COCc2cc(ccc2OCCN2CCCC2)Nc2nccc(n2)-c2cccc(c2)COC/1`, the remaining signal was 30% (Tyrosine-protein kinase JAK1, JH2 (JAK1, Homo sapiens, UniProt P23458); cell-free assay; 0.1 µM).
`CC[C@H](C)[C@H](NC(=O)[C@H](CCC(N)=O)NC(=O)[C@H](CC(C)C)NC(=O)[C@H](CCSC)NC(=O)[C@H](CCCCN)NC(=O)[C@H](CO)NC(=O)[C@H](CO)NC(=O)[C@H](CCSC)NC(=O)[C@H](CC(C)C)NC(=O)[C@H](CC(N)=O)NC(=O)[C@@H](NC(=O)[C@@H](NC(=O)[C@H](CO)NC(=O)[C@H](CC(C)C)NC(=O)[C@H](CS)NC(=O)[C@H](CCCNC(=N)N)NC(=O)[C@H](CC(=O)O)NC(=O)[C@H](Cc1c[nH]c2ccccc12)NC(=O)[C@H](Cc1ccccc1)NC(=O)[C@H](C)NC(=O)[C@H](CCC(=O)O)NC(=O)[C@@H](N)CCCCN)C(C)C)[C@@H](C)CC)C(=O)N[C@@H](CC(N)=O)C(=O)N[C@@H](C)C(=O)O` has a remaining activity of 94% (MAPK3 (Homo sapiens, UniProt P27361); enzyme activity, inhibitor, radiometric; 100 µM, 20 min).
With `C=CC(=O)N1CCC(COCC(=O)N2CCN(c3nc(-c4cnc(N)nc4C(F)F)nc(N4CCOC[C@@H]4C)n3)CC2)CC1` the remaining binding was 100% (MARK1 (Homo sapiens, UniProt Q9P0L2); binding, competition with immobilised ligand; 1 µM).
`CCCCC(=O)Nc1ccc(-c2ccc3ncn(CCC)c(=O)c3c2)cn1` has a remaining binding of 90% (PRKD1 (Homo sapiens, UniProt Q15139); binding, competition with immobilised ligand; 0.5 µM).
The remaining activity of `COc1cc(-c2cncc3c2CN(C)Cc2cc(N4CCNCC4)ccc2-3)cc(OC)c1OC` is reported as 94% (PDGFRA (Homo sapiens, UniProt P16234); enzyme activity, inhibitor; 1 µM).
`CN(c1nccc(-c2cnn3ncccc23)n1)C1CC1` has a remaining binding of 100% (CDK19 (Homo sapiens, UniProt Q9BWU1); binding; 1 µM).
The Emax of `COc1ccc2cccc(CCNC(C)=O)c2c1` is reported as 91% (MTNR1A (Homo sapiens, UniProt P48039); cAMP, agonist, TR-FRET; CHO-K1; 20 min).
With `CC(=O)/C=C/C=C(C)/C=C/C1=C(C)CC(O)CC1(C)C` (stereo in doubt) the ΔTm was 3.84 °C (KAI2 (Arabidopsis thaliana, UniProt Q9SZU7); thermal stability; 100 µM).
For `Cc1cc([C@@H](C)Nc2ccccc2C(=O)O)c2nc(N3CCC(F)(F)CC3)c(C#N)c(=O)n2c1`, the remaining binding was 82% (NUAK2 (Homo sapiens, UniProt Q9H093); binding, competition with immobilised ligand; 1 µM).
`CC(=O)Nc1ccc(Oc2nnc(-c3ccc(Cl)cc3)c3ccccc23)cc1` gave a viability of 6.84% (HepG2; cell growth or viability, MTT; 10 µM, 24 h).
With `CCN(O)N=Nc1ccc(S(=O)(=O)Nc2cc(C)on2)cc1` the inhibition was 38.7% (DPPH scavenging, absorbance; 240 µg/mL).
